Results pooled from the literature.
Lines come from different studies, so protocols differ.
UniProt O94776, sequence (whole entry, looked up): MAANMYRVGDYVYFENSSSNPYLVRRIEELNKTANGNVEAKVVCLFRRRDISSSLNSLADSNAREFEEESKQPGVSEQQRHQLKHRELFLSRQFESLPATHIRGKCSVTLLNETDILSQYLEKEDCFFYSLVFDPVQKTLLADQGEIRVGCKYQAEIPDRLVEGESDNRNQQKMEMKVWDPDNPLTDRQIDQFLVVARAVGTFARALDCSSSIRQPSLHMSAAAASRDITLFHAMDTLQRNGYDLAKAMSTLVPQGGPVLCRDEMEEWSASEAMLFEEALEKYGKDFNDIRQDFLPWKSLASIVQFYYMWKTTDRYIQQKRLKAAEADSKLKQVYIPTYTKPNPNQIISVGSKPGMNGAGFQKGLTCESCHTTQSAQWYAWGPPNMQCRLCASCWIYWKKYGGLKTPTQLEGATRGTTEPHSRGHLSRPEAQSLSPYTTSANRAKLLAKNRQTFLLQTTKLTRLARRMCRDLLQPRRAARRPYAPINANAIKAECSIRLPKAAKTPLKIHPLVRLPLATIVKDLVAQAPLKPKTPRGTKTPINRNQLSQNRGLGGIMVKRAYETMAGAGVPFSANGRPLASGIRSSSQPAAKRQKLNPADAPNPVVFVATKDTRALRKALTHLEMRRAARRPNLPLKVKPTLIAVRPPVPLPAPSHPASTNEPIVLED
UniProt O60884, sequence (whole entry, looked up): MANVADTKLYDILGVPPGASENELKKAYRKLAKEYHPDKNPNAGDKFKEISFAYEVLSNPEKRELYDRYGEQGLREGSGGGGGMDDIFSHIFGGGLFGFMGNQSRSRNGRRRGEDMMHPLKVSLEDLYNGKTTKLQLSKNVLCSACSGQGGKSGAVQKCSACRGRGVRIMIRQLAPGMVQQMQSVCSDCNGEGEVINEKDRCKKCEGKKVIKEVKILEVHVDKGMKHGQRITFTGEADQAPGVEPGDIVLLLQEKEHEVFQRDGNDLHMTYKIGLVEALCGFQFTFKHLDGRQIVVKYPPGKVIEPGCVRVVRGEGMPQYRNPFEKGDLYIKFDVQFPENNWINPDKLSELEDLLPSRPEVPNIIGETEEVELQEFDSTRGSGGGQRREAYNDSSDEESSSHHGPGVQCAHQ
UniProt P63104, sequence (whole entry, looked up): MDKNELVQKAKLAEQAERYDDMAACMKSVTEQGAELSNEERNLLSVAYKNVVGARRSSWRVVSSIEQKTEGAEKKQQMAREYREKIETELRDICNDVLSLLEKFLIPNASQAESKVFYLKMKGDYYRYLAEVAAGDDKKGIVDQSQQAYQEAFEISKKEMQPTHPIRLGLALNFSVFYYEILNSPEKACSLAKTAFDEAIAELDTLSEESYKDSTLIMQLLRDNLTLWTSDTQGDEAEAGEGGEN
UniProt Q8WTT2, sequence (whole entry, looked up): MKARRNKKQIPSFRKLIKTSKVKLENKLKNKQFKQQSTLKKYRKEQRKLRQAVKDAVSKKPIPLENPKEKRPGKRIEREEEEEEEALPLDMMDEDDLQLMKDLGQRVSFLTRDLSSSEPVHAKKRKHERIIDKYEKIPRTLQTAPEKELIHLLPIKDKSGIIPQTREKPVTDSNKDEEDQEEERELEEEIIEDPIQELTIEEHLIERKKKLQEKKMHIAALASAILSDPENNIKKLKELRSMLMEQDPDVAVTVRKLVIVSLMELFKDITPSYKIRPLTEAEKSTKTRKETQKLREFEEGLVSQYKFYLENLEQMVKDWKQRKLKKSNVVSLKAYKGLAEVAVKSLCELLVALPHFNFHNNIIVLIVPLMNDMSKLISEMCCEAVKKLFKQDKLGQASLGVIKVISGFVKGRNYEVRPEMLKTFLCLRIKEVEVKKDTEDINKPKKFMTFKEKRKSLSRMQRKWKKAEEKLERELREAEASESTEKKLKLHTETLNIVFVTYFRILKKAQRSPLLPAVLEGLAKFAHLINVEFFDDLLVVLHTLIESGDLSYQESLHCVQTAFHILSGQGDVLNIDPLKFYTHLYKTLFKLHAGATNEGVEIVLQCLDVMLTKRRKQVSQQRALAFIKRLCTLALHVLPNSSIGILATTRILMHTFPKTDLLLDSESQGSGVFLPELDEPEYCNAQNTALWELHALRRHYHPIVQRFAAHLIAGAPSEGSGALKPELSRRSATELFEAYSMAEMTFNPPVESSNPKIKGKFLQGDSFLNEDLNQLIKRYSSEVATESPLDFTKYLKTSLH
UniProt P62258, sequence (whole entry, looked up): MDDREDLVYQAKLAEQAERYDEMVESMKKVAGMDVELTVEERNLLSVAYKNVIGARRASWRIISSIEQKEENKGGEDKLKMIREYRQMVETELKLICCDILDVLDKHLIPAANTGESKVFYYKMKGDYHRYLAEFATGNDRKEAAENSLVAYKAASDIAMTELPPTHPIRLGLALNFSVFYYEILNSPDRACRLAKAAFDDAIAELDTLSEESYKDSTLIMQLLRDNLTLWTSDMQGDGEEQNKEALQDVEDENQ
UniProt Q9BPW8, sequence (whole entry, looked up): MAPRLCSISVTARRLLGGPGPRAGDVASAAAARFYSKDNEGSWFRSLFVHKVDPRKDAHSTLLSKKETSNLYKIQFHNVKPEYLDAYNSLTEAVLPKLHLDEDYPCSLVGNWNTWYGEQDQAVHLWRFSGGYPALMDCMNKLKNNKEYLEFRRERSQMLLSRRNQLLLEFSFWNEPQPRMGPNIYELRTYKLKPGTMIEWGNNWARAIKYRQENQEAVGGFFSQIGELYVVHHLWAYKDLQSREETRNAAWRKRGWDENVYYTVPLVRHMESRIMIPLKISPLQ
UniProt Q9Y3I0, sequence (whole entry, looked up): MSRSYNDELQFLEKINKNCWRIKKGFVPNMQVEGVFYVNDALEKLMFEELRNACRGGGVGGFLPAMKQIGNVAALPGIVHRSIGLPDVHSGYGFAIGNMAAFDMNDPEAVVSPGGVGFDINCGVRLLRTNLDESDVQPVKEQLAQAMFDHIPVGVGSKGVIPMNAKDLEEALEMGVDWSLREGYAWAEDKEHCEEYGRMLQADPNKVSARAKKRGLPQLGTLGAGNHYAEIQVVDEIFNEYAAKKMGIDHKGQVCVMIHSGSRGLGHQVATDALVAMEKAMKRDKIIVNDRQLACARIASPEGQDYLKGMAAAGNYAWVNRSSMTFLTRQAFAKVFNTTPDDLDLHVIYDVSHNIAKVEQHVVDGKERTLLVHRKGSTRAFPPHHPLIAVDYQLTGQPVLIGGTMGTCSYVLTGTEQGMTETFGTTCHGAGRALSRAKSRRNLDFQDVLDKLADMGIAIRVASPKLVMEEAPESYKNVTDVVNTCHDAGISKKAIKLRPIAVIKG
UniProt Q9Y224, sequence (whole entry, looked up): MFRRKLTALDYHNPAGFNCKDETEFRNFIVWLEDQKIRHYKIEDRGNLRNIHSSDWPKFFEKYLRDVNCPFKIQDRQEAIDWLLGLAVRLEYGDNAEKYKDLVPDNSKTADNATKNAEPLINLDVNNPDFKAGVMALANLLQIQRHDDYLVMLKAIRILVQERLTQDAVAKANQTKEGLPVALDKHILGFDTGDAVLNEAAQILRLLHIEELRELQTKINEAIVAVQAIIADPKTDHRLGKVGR
UniProt P05141, sequence (whole entry, looked up): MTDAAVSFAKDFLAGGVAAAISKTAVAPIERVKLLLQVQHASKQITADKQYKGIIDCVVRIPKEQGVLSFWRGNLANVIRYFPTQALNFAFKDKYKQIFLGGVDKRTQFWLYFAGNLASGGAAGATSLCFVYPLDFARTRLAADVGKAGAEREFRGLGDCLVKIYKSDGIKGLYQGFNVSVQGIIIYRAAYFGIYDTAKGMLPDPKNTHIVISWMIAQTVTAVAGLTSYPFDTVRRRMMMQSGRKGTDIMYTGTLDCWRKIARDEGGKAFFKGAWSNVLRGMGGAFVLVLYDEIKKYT
UniProt Q9H307, sequence (whole entry, looked up): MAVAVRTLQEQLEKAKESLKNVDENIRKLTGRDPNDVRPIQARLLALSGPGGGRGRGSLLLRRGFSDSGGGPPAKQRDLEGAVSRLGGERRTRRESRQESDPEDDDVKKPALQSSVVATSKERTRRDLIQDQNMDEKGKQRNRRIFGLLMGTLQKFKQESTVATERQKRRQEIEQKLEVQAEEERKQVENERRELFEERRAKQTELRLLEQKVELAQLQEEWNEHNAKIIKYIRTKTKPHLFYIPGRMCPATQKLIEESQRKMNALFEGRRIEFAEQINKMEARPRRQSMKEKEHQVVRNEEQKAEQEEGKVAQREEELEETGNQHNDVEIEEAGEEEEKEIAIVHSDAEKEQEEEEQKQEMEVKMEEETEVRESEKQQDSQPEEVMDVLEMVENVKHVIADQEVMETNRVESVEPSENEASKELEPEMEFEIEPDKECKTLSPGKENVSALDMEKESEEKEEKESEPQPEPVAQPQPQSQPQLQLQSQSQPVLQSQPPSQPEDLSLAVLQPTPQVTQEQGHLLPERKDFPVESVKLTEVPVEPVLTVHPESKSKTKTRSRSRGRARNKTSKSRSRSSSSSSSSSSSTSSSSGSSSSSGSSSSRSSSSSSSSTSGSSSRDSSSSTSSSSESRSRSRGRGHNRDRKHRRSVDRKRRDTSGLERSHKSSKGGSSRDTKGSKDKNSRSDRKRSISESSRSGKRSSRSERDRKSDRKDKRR
UniProt P60660, sequence (whole entry, looked up): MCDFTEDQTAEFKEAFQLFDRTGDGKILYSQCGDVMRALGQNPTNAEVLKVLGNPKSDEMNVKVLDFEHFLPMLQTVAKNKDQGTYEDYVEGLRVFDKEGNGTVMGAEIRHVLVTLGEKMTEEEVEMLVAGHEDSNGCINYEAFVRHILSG

Molecule | target or system | assay | system | setting | scale | endpoint | value
HSP90AB1 (Homo sapiens, UniProt P08238) | NOC3L (Homo sapiens, UniProt Q8WTT2) | cross-linking MS | cells | together with: iqPIR |  | cross-linked residues | K435 to K390
CAND1 (Homo sapiens, UniProt Q86VP6) | MNS1 (Homo sapiens, UniProt Q8NEH6) | cross-linking MS | cells | together with: BDP-NHP |  | cross-linked residues | K574 to K129
ITIH2 (Homo sapiens, UniProt P19823) | DTX3L (Homo sapiens, UniProt Q8TDB6) | cross-linking MS |  | together with: DSSO |  | cross-linked residues | K605 to K460
VIM (Homo sapiens, UniProt P08670) | KRT7 (Homo sapiens, UniProt P08729) | cross-linking MS | cells | together with: BDP-NHP |  | cross-linked residues | K294 to K286
FGA (Homo sapiens, UniProt P02671) | PPP1R26 (Homo sapiens, UniProt Q5T8A7) | cross-linking MS |  | together with: DSSO |  | cross-linked residues | K89 to K265
PLCH2 (Homo sapiens, UniProt O75038) | HNRNPK (Homo sapiens, UniProt P61978) | cross-linking MS |  | together with: DSSO or DMTMM |  | cross-linked residues | M1 to D334
GSGAGRETEV | human MAGI1-2/6 PDZ construct (MBP fusion) | automated holdup | peptide, crude extract | concentration not given, uncorrected, unit not given | relative to: biotin control resin, higher = stronger binding | binding intensity | 0.305
SLC4A1 (Homo sapiens, UniProt P02730) | ANK2 (Homo sapiens, UniProt Q01484) | cross-linking MS |  | together with: DSSO or DMTMM |  | cross-linked residues | D369 to K1715
XRCC6 (Homo sapiens, UniProt P12956) | XRCC5 (Homo sapiens, UniProt P13010) | cross-linking MS | cells | together with: BDP-NHP |  | cross-linked residues | K282 to K265
RTRAF (Homo sapiens, UniProt Q9Y224) | RTCB (Homo sapiens, UniProt Q9Y3I0) | cross-linking MS | cells | together with: iqPIR |  | cross-linked residues | K185 to K492
ALB (Homo sapiens, UniProt P02768) | CCDC63 (Homo sapiens, UniProt Q8NA47) | cross-linking MS |  | together with: DSSO |  | cross-linked residues | K543 to K140
TASOR2 (Homo sapiens, UniProt Q5VWN6) | WDR76 (Homo sapiens, UniProt Q9H967) | cross-linking MS |  | together with: DSSO |  | cross-linked residues | K362 to K10
SPTBN1 (Homo sapiens, UniProt Q01082) | LMO7 (Homo sapiens, UniProt Q8WWI1) | cross-linking MS | cells | together with: BDP-NHP |  | cross-linked residues | K593 to K1248
FUS (Homo sapiens, UniProt P35637) | ERLEC1 (Homo sapiens, UniProt Q96DZ1) | cross-linking MS |  | together with: DSSO |  | cross-linked residues | K451 to K360
PFKM (Homo sapiens, UniProt P08237) | PFKP (Homo sapiens, UniProt Q01813) | cross-linking MS | cells | together with: BDP-NHP |  | cross-linked residues | K727 to K736
GOLIM4 (Homo sapiens, UniProt O00461) | SLC4A1 (Homo sapiens, UniProt P02730) | cross-linking MS |  | together with: DSSO or DMTMM |  | cross-linked residues | K581 to D25
PPIA (Homo sapiens, UniProt P62937) | PNN (Homo sapiens, UniProt Q9H307) | cross-linking MS | cells | together with: iqPIR |  | cross-linked residues | K125 to K676

Molecule | target or system | assay | system | setting | scale | endpoint | value
FGG (Homo sapiens, UniProt P02679) | GNL3L (Homo sapiens, UniProt Q9NVN8) | cross-linking MS |  | together with: DSSO |  | cross-linked residues | K231 to K180
COL6A3 (Homo sapiens, UniProt P12111) | HBB (Homo sapiens, UniProt P68871) | cross-linking MS |  | together with: DSSO or DMTMM |  | cross-linked residues | K1913 to E122
FARSB (Homo sapiens, UniProt Q9NSD9) | FARSA (Homo sapiens, UniProt Q9Y285) | cross-linking MS | cells | together with: BDP-NHP |  | cross-linked residues | K467 to K481
MYH9 (Homo sapiens, UniProt P35579) | MYL6 (Homo sapiens, UniProt P60660) | cross-linking MS | cells | together with: iqPIR |  | cross-linked residues | K833 to K81
EEF1G (Homo sapiens, UniProt P26641) | EEF1D (Homo sapiens, UniProt P29692) | cross-linking MS | cells | together with: BDP-NHP |  | cross-linked residues | K219 to K17
KDECVIATEV | human MAGI1-3/6 PDZ construct (MBP fusion) | automated holdup | peptide, crude extract | concentration not given, corrected by standard peak, unit not given | relative to: biotin control resin, higher = stronger binding | binding intensity | 0.000699
NUP205 (Homo sapiens, UniProt Q92621) | MYO5C (Homo sapiens, UniProt Q9NQX4) | cross-linking MS | cells | together with: iqPIR |  | cross-linked residues | K1271 to K1242
DNAJA2 (Homo sapiens, UniProt O60884) | SLC25A5 (Homo sapiens, UniProt P05141) | cross-linking MS | purified complex | together with: DSSO |  | cross-linked residues | K212 to K147
MTA2 (Homo sapiens, UniProt O94776) | HSPA5 (Homo sapiens, UniProt P11021) | cross-linking MS | cells | together with: iqPIR |  | cross-linked residues | K501 to K326
FGB (Homo sapiens, UniProt P02675) | RANBP17 (Homo sapiens, UniProt Q9H2T7) | cross-linking MS |  | together with: DSSO or DMTMM |  | cross-linked residues | K264 to D926
FGB (Homo sapiens, UniProt P02675) | CDK12 (Homo sapiens, UniProt Q9NYV4) | cross-linking MS |  | together with: DSSO |  | cross-linked residues | K83 to K414
HSPA8 (Homo sapiens, UniProt P11142) | NIPSNAP1 (Homo sapiens, UniProt Q9BPW8) | cross-linking MS | cells | together with: iqPIR |  | cross-linked residues | K325 to K51
SPTB (Homo sapiens, UniProt P11277) | GDI1 (Homo sapiens, UniProt P31150) | cross-linking MS |  | together with: DSSO or DMTMM |  | cross-linked residues | E515 to K112
YWHAE (Homo sapiens, UniProt P62258) | YWHAZ (Homo sapiens, UniProt P63104) | cross-linking MS | cells | together with: iqPIR |  | cross-linked residues | K50 to K68
GMPS (Homo sapiens, UniProt P49915) | BAHCC1 (Homo sapiens, UniProt Q9P281) | cross-linking MS |  | together with: DSSO |  | cross-linked residues | K671 to K247
CCT6A (Homo sapiens, UniProt P40227) | CCT8 (Homo sapiens, UniProt P50990) | cross-linking MS |  | together with: DSSO |  | cross-linked residues | K199 to K400

Some of these lines once more:
Molecule | target or system | assay | system | setting | scale | endpoint | value
PLCH2 (Homo sapiens, UniProt O75038) | HNRNPK (Homo sapiens, UniProt P61978) | cross-linking MS |  | together with: DSSO or DMTMM |  | cross-linked residues | M1 to D334
SPTB (Homo sapiens, UniProt P11277) | GDI1 (Homo sapiens, UniProt P31150) | cross-linking MS |  | together with: DSSO or DMTMM |  | cross-linked residues | E515 to K112
